Experimental data from different studies.
Parts stem from different laboratories: compare values within a part only. Positions count from the first letter of the parent shown.

Sample 1
Target: Cyclic AMP-responsive element-binding protein 1 (CREB1, Homo sapiens, UniProt P16220, residues 1-327, full length assumed)
UniProt P16220, sequence (whole entry, looked up): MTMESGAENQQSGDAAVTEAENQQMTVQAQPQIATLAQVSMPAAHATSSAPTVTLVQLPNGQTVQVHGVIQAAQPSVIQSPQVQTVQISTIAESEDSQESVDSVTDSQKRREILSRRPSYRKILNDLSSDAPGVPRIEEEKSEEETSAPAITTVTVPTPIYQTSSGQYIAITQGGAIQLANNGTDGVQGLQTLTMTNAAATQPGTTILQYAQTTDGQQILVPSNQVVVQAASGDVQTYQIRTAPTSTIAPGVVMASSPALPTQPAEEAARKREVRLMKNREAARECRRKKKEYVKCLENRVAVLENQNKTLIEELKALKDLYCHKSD
Method: protein-binding microarray
Molecule type: double-stranded DNA, one strand shown
Sample: in vitro
Tested at: not given
Notes: k-mer, scored over probes, only values ≥0.25
Reading: higher = stronger binding
Oligonucleotide	E-score
AAACGTC	0.305
ACATACG	0.267
GTCATCA	0.394
ACGTACA	0.283
GTCATAA	0.376
CGTGTCA	0.333
ATAATGA	0.27
CTCGTCA	0.289
ACGTAGT	0.263
AAGATGA	0.261
CATCACG	0.295
ATTACGC	0.353
GACGTAA	0.436
AAAAAAC	0.257

Sample 2
Target: Histone acetyltransferase KAT6A, winged helix 1, GST fusion (KAT6A, Homo sapiens, UniProt Q92794, residues 1-85)
Method: protein binding microarray
Molecule type: double-stranded DNA, one strand shown
Sample: in vitro
Tested at: not given
Notes: 8-mer, flanks averaged, mean of 2 arrays, mostly near background
Relative to: not given
Reading: higher = stronger binding
Target sequence (chain): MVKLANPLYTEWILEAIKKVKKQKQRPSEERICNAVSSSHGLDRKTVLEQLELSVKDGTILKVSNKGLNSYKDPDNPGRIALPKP
Oligonucleotide	E-score
CTCCTGGA	-0.2
GTGGGAAC	-0.161
GACTCGAA	-0.0256
ATATAGAA	-0.0607
ACGTATTG	0.0677
CTCCATGC	-0.128
CTGTTGAC	-0.229
GGTGTGAA	-0.0652
GACCTCAA	-0.254
GCTCATCA	-0.158
CCGCCCAG	0.158
GCGAAAAA	0.0477
CAGGTCCA	-0.174
CAGAAAAG	-0.13
ACTCAAAG	-0.138
CCGATCCA	0.11
AGATCTAG	-0.174
GATATGGA	-0.0686
ATTAGGCC	-0.0458
CATATAAA	0.0235
GCTGAAGC	0.0346
GGTGGCAC	-0.073
CAACTTGA	-0.248
AAACTCGC	-0.00919
ACCTCTTG	-0.152

Sample 3
Target: Fragile X messenger ribonucleoprotein 1, C-terminal low-complexity region (Fmr1, Mus musculus, UniProt P35922)
Method: RNA Bind-n-Seq
Molecule type: RNA
Sample: in vitro
Tested at: 200 nM
Notes: whole 134-nt RNA, ends assumed
Added: 150 mM KCl
Relative to: input library
Reading: higher = stronger binding
All sequences stand within: GGGAGUUCUACAGUCCGACGAUC … UGGAAUUCUCGGGUGUCAAGG
Oligonucleotide	log2 enrichment
GGAUUGGUAGCUUAUGUCGAUCUUGAUGAAAGAGCAAUUGAUGCUCUCAGGGAAUUUAAUGAAGAAGGAGCUCUGUCUGUACUACAGCAG	-1.84
CAAGUCCUGUGCUACACAUCGUAUGUACCGAAUCGGGCCCGGGGCCCGGGGCCCGGAAAGUAUUAUGUUACGCCGUUCGGAUCUGCACUU	-0.528
CCUGUGCUACACAUCGUAUGUACCGAAUCGGGCCCCCCGGGCCCCCCGGGGCCCCCCGGGGAAAGUAUUAUGUUACGCCGUUCGGAUCUG	-1.01
GGCAAGAGGAGGAACGACGUAGAAGAGAGGAAGAGAUGAUGAUUCGUCAACGUGAGAUGGAAGAACAAAUGAGGCGCCAAAGAGAGGAAA	0.877
ACCAUGCAGGUGGGCAUCUUUGGGAAGUGGGGCAAGGGGGGGAUAGGGAGGGGGGUAACACUUUUGGAACAGGUGGUCCCAGGUCGUUUC	0.98
CUCAAGUCCUGUGCUACACAUCGUAUGUACCGAAUCGGUUUGGAAAAAGGUGGAAAGUAUUAUGUUACGCCGUUCGGAUCUGCACUUCCA	-0.0323
UUACCGACACCGUAGAACAGAGCAAGAGGAGGAUGAAGAGCUAUUAACAGAAAGCUCCAAAGCAACCAAUGUUUGCACUCGAUUUGAAGA	-0.368
AAGUCCUGUGCUACACAUCGUAUGUACCGAAUCGGGAAAGGGAAAAAGGGAAAGGGAAAGUAUUAUGUUACGCCGUUCGGAUCUGCACUU	0.113
UGGCCCUGGUUGCAUGCGGGGAGGAAGAGGUGGCCUCAUGGAUCGUGGUGGUCCCGGUGGAAUGUUCAGAGGUGGCCGUGGUGGAGACAG	-0.0545

Sample 4
Target: RNA binding protein fox-1 homolog 2, RRM domain, GST-SBP tag (RBFOX2, Homo sapiens, UniProt O43251-10, residues 100-194)
Method: RNA Bind-n-Seq
Molecule type: RNA
Sample: in vitro
Tested at: 365 nM
Notes: natural RNA segment, single round, ends assumed
Relative to: no-protein control
Reading: higher = stronger binding
All sequences stand within: GGGAGUUCUACAGUCCGACGAUC … UGGAAUUCUCGGGUGCCAA
Target sequence (chain): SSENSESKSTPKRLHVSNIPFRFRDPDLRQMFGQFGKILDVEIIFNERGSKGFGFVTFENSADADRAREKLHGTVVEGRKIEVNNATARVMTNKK
Oligonucleotide	RBNS enrichment (R)
GACUGGAAGCAAGAGGUUCAUUCAAAGAGAAACUCAUGGGAUUUGUAACCAGAUGAAUCAUGAUUUCUAAGACUUCUGAUCAAAAAUACUGUGAAAUAAAGAAUGUUAAU	2.67
UACUUAUGCAUGCUAAAUUAUUAUUUAGCUUUCCCAUCCCCCAGGGUGGAGAUGGAAUGUAAAAUAAUUGGUUUUUUUACUAGAUGAGAGUGAGGGGGGGGGAGAAACAC	10.9
AUUAUUUCUUAACUGACUAGAAAGAGCCACCAGCAUUACUCUGUGCCUUUUGGACUUGAGUUUGUAUGUUCUGUAGGAACUACAUGCAUUCCUUUCACACAGUAUUUCAG	0.532
GCUCGGUGGAUGCUGGGCCCAAGGUGUAGGCAGAAUGAUUGGCCAGCUGGCCUCUCUCAUCUCUCAGAUCAUGUCUAUCUCAGGGGCCACAAUAAGAAACAUACUCUCCA	0.212
GACAUCCACCUCCAGAGCAACACUGGCCCCACAGUAAAAGAGGAAGUCUUGUACCUCAGGCAGGCCCAUCUAGAGCUAUUGCUCCUUCCCACAGCAAAGGUAUUGUGGAU	0.439
AGAACCUUUCCCCUGUACUUUUCUUUGGCCCCAUUGUUUAAAAGGGGAAAAUGGCCUUUUUAAACCCUGUCAAGCCCAUGAUGGAAGACACCACCUCUGCCAUGCCCUGU	0.657
CCUGCAGCUGCCUCACACCGCCCCUUGUGCUCGCCUCAUAGGUGUCUAUUUGGACUCUAAGCUCUACGGGUGACAGAUCUUGUUUCUGAAGAUGGUUUAAGUUAUAGCUU	0.433
ACGUGGUAUUCCCCAGCGGUAGCCUGGAGGAAACUGUGCAAGCUGUGCAGCCCUCUAGUCAAUCACCAGUCCGGGAGUCAGGUUGUACUGAGUAGCUGGCCACGGAGGCU	0.226

Sample 5
Target: CCNA1, cyclin fold, Cln2 fusion (human)
Method: yeast growth competition, sequencing
Sample: yeast
Notes: weak parent motif
Relative to: not given
Reading: higher = stronger binding
Starting sequence: ITGB3BP docking peptide (human); MPVKRSLKLDGLL; partner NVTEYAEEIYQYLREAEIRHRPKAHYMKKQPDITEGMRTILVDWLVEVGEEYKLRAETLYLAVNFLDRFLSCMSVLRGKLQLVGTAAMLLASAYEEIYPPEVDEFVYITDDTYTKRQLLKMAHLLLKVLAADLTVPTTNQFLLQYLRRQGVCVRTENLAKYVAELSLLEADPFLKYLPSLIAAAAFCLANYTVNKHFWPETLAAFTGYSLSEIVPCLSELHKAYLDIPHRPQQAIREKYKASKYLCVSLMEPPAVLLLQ
Substitution	normalised enrichment score
MPVKASLKLDGLL [R5A]	0.023
MPVKRALKLDGLL [S6A]	0.251
MPVKRSLKLDGLA [L13A]	0.535
MPVKRSLKLDGAL [L12A]	0.3
MPVKRSLALDGLL [K8A]	0.322
MPVKRSLKLDALL [G11A]	0.234
MPVKRSLKFDGLL [L9F]	0.641

Other studies, line by line
Molecule	target	test	test system	setting	how to read	endpoint	value
PhoQ, residues 284 288 289 292 302 303 ASTSDA	PhoP, residues 12 14 15 18 19 NHFIF (Escherichia coli, UniProt P23836)	Sort-seq, item: YFP reporter	E. coli	PhoQ-PhoP variant library, added: 10 µM Mg2+	relative to: high Mg2+ state, higher = stronger signaling	fold induction	16.8
